Results from different studies.
Parts stem from different laboratories: compare values within a part only. Changes are numbered by the printed parent chain.
UniProt P35368, sequence (whole entry, looked up): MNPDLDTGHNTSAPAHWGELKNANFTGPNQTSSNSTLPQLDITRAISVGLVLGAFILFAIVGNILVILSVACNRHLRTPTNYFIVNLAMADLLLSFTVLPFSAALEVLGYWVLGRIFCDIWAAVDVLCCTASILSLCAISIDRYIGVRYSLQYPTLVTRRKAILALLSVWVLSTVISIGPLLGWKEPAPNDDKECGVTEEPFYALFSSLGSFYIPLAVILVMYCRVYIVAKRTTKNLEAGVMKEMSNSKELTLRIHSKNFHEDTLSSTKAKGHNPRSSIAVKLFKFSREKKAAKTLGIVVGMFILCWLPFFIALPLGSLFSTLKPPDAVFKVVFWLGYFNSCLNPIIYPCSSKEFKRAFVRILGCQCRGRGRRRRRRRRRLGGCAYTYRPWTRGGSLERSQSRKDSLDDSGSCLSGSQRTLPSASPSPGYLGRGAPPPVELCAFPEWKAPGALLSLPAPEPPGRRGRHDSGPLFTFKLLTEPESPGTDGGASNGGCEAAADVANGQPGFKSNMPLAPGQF

Sample 1 — target: CEBPE, bZIP domain (human); method: DHFR protein complementation; matrix: yeast; baseline: wild-type JUN-FOS pair; direction: higher = stronger binding
Setting: single substitutions, most at no-binding floor
Starting sequence: JUN, bZIP domain (human); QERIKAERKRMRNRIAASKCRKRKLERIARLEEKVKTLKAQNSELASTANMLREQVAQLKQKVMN; partner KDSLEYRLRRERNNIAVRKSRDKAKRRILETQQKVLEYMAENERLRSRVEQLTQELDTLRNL
The binding fitness of `A57V` is reported as -1.23 natural log.
The binding fitness of `A57S` is reported as -1.27 natural log.
For `V56H`, the binding fitness was -1.44 natural log.
With `A29N` the binding fitness was -1.25 natural log.
`E33I` gave a binding fitness of -1.33 natural log.
With `E54K` the binding fitness was -1.35 natural log.
The binding fitness of `E32M` is reported as -1.29 natural log.
For `K34L`, the binding fitness was -1.1 natural log.

Sample 2 — method: universal PBM; molecule type: double-stranded DNA, one strand shown; matrix: in vitro; tested at: 600 nM; direction: higher = stronger binding
Target: Sal-like protein 4, full length isoform A (SALL4, Homo sapiens, UniProt Q9UJQ4, residues 1-1053)
UniProt Q9UJQ4, sequence (whole entry, looked up): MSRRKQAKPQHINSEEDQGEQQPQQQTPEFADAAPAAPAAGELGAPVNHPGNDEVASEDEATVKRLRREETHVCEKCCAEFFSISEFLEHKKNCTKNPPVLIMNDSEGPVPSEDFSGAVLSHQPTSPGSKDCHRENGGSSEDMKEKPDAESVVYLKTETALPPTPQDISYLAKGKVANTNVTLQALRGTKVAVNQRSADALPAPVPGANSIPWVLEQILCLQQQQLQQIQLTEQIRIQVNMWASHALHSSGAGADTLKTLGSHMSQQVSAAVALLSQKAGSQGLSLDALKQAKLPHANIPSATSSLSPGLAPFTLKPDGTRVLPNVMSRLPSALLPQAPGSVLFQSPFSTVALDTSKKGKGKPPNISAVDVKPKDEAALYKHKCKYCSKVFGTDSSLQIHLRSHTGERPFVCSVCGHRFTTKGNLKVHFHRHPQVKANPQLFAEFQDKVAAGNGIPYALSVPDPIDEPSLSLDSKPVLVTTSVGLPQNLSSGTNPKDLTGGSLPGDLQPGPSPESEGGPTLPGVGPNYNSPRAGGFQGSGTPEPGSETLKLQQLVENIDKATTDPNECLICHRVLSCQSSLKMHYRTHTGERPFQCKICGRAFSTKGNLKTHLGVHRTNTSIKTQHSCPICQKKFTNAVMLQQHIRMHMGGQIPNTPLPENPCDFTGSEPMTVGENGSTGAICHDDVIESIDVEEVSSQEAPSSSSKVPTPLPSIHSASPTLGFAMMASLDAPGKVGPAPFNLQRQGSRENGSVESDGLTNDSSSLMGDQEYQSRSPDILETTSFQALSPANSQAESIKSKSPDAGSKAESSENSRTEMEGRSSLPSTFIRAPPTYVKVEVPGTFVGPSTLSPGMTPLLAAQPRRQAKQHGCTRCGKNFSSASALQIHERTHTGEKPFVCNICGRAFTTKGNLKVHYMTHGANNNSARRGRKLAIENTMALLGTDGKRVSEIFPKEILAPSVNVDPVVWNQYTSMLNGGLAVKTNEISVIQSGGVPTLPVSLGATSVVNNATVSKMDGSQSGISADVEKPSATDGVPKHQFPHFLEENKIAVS
Setting: 8-mer, flanks averaged, mean of replicates
`GAACCTCC` gave an E-score of -0.202.
The E-score of `AGATATGC` is reported as 0.175.
With `ATCGCCGG` the E-score was -0.355.
With `ATCTTGCC` the E-score was -0.0128.
The E-score of `CCCCACTA` is reported as -0.296.
`ATGCAGAG` has an E-score of -0.0604.
With `GTAAAACA` the E-score was 0.195.
With `GATCAGGA` the E-score was -0.136.

Sample 3 — Variant: F56M; method: DHFR PCA, deep sequencing; matrix: yeast; baseline: wild-type fitted maximum; direction: higher = stronger binding
Target: ABI1, truncated, D143A, DHFR fusion (Arabidopsis thaliana)
Setting: methotrexate growth selection, single substitutions
Starting sequence: PYL1, truncated, DHFR fusion (Arabidopsis thaliana); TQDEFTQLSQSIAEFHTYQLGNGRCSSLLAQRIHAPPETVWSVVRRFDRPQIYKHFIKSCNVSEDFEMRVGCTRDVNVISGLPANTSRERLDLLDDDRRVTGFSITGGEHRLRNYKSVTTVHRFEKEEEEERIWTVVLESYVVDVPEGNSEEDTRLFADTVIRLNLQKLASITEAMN
The “relative binding score” was 93.9% (with: (+)-ABA 200 µM).
It gave 74.1% for “relative binding score” (with: (+)-ABA 58 µM).
with: (+)-ABA 710 µM — “relative binding score”: 98.2%.
The “relative binding score” was -4.29% (with: (+)-ABA 0.032 µM).
with: (+)-ABA 1.4 µM — “relative binding score”: 11.3%.
with: (+)-ABA 0.39 µM — “relative binding score”: -2.9%.

Mixed results
`O=C(NS(=O)(=O)c1ccc(NCC2CCOCC2)c([N+](=O)[O-])c1)c1ccc(N2CCN(Cc3ccc(C(F)(F)F)cc3-c3ccc(Cl)cc3)CC2)cc1Oc1cnc2[nH]ccc2c1` gave an inhibition of 12.3% (Alpha-1B adrenergic receptor (ADRA1B, Homo sapiens, UniProt P35368); ligand displacement; 10 µM).

Repeated from above (sample 3):
with: (+)-ABA 710 µM — “relative binding score”: 98.2%.
The “relative binding score” was -4.29% (with: (+)-ABA 0.032 µM).
